Results collected from several papers.
Parts stem from different laboratories: compare values within a part only. Changes are numbered by the printed parent chain.

Sample 1
Target: CCNB2, cyclin fold, Cln2 fusion (human)
Method: yeast growth competition, sequencing
Medium: yeast
Notes: weak parent motif
Baseline: not given
Reading: higher = stronger binding
Measurement: normalised enrichment score
Starting sequence: CDKN1B docking peptide (human); PSACRNLFGPVDH; partner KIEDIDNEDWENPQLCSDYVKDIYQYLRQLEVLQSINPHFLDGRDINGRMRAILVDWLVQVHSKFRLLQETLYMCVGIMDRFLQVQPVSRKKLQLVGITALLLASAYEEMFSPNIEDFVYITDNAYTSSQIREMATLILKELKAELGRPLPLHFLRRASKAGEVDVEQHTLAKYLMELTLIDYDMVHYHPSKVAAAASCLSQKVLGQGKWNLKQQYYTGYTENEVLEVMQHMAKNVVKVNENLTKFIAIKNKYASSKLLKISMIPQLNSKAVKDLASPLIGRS
Variant = PSACRNCFGPVDH [L7C]; value = -0.29
Variant = PSACANAFGPVDH [R5A L7A]; value = -0.0757
Variant = PSKCRNLFGPVDH [A3K]; value = 0.151
Variant = PSACRNLFPPVDH [G9P]; value = -0.301
Variant = PSACRNLKGPVDH [F8K]; value = 0.134
Variant = PSASRNLFGPVDH [C4S]; value = 0.0741
Variant = PSACRNPFGPVDH [L7P]; value = -0.244
Variant = PSACCNLFGPVDH [R5C]; value = -0.462
Variant = PSACRNLFGPVDI [H13I]; value = -0.241
Variant = PSACRNLFGPVFH [D12F]; value = 0.0962
Variant = PSACFNLFGPVDH [R5F]; value = -0.477
Variant = PSACRNLFTPVDH [G9T]; value = 0.321
Variant = PSACRNLMGPVDH [F8M]; value = -0.136
Variant = PSACRNLFWPVDH [G9W]; value = 0.256
Variant = PSACTNLFGPVDH [R5T]; value = -0.58
Variant = PSACRNLFIPVDH [G9I]; value = 0.183
Variant = ESACRNLFGPVDH [P1E]; value = -0.195

Sample 2
Target: Hepatocyte nuclear factor 3-alpha (Foxa1, Mus musculus, UniProt P35582, residues 1-468, full length assumed)
Method: EMSA with sequencing
Molecule type: double-stranded DNA, one strand shown
Medium: in vitro
Concentration: 10 and 20 nM
Notes: whole designed probe, mean of two concentrations, ends assumed
Baseline: negative control set to 0
Reading: higher = stronger binding
Measurement: normalised bound fraction
Construct (chain): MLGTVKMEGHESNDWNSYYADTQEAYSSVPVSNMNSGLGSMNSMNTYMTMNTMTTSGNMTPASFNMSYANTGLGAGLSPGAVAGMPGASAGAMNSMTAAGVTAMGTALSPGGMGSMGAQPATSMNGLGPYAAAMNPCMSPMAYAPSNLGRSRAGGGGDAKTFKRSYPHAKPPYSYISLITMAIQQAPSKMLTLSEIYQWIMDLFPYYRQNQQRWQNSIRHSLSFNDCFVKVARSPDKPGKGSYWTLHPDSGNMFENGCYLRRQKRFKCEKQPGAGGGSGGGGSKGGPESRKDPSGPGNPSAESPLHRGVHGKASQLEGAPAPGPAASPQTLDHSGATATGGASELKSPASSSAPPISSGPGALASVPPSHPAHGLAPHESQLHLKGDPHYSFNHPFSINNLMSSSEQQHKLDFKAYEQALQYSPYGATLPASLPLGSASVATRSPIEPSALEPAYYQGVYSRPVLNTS
Sequence = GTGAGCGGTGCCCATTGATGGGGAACTCAACTGTGCCATGTTAGCAGGAAAGCTGCCAGACACAATAAGTACTCTAACAGCGTGGCTGTGTTCCAAAAAAACTTAAATTACACACACTTAGATTACACACATAGGTGGCAAGCTGTAATTTTTTTATGTAATTTATGGTATTTTGCCATAGTTTGCTGACTCTTGATACAAATATGGAGACTTTTAAAGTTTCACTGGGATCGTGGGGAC; value = 0.205 ratio
Sequence = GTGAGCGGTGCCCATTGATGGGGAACAACAGATTAGCTGATCTCTAATGGCCCTAGGAGAAGATCTTGTATTGCTTCAAAATCTTTTCTGATTCTCATCACTCAACCTTCTTGGCTATGTAAACAAAGGAAGCTTTCCTTTTGTTTTCCAGACGTTTGGAAAACAAAATTTTCCAGAGCTGTGCATCTGCCAGGAAATGTTTCTTTTAACCTGATATCATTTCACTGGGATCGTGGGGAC; value = 0.506 ratio
Sequence = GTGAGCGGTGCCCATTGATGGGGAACCCCTCATCCTGGGTGTCGGGGTGGGAGGTGTTCTCATCATGAATGGGAGGCGTACCCAGTGACTCACCAGCCTTTTTTTAACCAAACCAGAGTGTAAACAAATGGCTGTGTGTCACACCATAATCGACATAGCAAGATATGATACATGCCAGGAGAGAAAAAGAAAGTGCTGATGGAAAAATAATCTCATTAGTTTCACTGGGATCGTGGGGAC; value = 0.309 ratio
Sequence = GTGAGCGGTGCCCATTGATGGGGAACAACAGGAAATTCCTGGCTATTTTACAGATATAAGTACAGAATTTAAATATTCAAGCTTGTGATGAAAAGCGGCAAGGTGGTCGCAGTGTACAATGTAAACAAGTAGCTTTGGAAATGAACAAAGTCCTTGAGTGTTTTTCTTTATTAAGAAAGAACTCTCTTTCATTCCTTCCTGAAACATGATCACAGGTCATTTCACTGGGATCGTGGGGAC; value = 0.406 ratio
Sequence = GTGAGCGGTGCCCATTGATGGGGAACTAGCTTTGAAAACTGTGAAAGGGGATAACCCATAATTTCTTTTTTGATAAAATGACATGCCCCAGGGGTGAGCTAGGTTTGCTTTGACAAGAAAGTAATCTAGGAGCAAGTGAAAGGAAATGAAAAATATATTACCAAACTCTCATCTTTCAGCTGCTGATGCTGCCTATTGTCAGCTGCAGCAGAGTGTAGATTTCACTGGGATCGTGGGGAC; value = -0.0424 ratio

Sample 3
Target: Interferon regulatory factor 7, full length, phosphomimetic (IRF7, Homo sapiens, UniProt Q92985, residues 1-503, S101K/S471D/S472D/S475D/S476D/S477D/S483D/S484D/S487D)
Method: protein-binding microarray
Molecule type: double-stranded DNA, one strand shown
Medium: in vitro
Concentration: 250 nM
Notes: 60-bp whole probe
Added: salmon DNA 0.4 mg/ml
Baseline: random background probes
Reading: higher = stronger binding
Measurement: log fluorescence
All sequences stand within: GCCTAGCAC … GTCTTGATTCGCTTGACGCTGCTG
Construct (chain): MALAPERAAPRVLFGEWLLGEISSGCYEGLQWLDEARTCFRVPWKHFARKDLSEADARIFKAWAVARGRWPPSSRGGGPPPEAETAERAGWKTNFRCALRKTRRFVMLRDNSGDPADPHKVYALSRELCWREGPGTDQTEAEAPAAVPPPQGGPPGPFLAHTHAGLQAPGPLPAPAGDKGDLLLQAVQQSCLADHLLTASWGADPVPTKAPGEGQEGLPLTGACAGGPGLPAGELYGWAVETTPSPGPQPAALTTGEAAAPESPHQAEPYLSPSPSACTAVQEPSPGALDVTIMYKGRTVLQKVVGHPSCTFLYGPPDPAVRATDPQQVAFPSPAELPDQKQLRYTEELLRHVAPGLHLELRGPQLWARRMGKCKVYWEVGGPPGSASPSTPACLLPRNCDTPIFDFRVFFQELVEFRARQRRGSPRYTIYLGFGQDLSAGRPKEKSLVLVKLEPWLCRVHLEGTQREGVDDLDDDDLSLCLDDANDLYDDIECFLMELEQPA
Sequence = TCAGGTATCGACTATCGGTTAGTGCTA; value = 0.576 z-score
Sequence = AGTCATCTCCAAAGTCAGCCAGTGCTA; value = -0.344 z-score
Sequence = GACGGTTTTGGGTTTCGGGACGTGCTA; value = 4.08 z-score
Sequence = AGTTAATCCCTCTCAGGCATGTGCTAG; value = 0.0752 z-score
Sequence = TTAGGACTGGACCCTGGGTTAGTGCTA; value = -0.377 z-score
Sequence = GACGGTATCCTTATCCAGACGTGCTAG; value = 0.0186 z-score
Sequence = GACGGTTTAGGTTCCGGGACGTGCTAG; value = 1.02 z-score
Sequence = GACGATTTAAGACTGGAGACGTGCTAG; value = -0.122 z-score
Sequence = ATAGGACTGCTTTTCCTTTAGTGCTAG; value = 1.2 z-score
Sequence = CCACTCTTGCTTTTTAGATCGTGCTAG; value = 0.356 z-score
Sequence = GACGGTATCAGTCTCGAGACGTGCTAG; value = 0.308 z-score

Single results of other studies
Substance = PhoQ, residues 284 288 289 292 302 303 SLCLSL; target = PhoP, residues 12 14 15 18 19 TPLRH (Escherichia coli, UniProt P23836); assay = Sort-seq, refers to: YFP reporter; system = E. coli; setting = PhoQ-PhoP variant library, added: 10 µM Mg2+; how to read = baseline: high Mg2+ state, higher = stronger signaling; measurement = fold induction; value = 7.4

Some of these lines once more (sample 2):
Sequence = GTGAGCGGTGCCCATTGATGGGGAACTCAACTGTGCCATGTTAGCAGGAAAGCTGCCAGACACAATAAGTACTCTAACAGCGTGGCTGTGTTCCAAAAAAACTTAAATTACACACACTTAGATTACACACATAGGTGGCAAGCTGTAATTTTTTTATGTAATTTATGGTATTTTGCCATAGTTTGCTGACTCTTGATACAAATATGGAGACTTTTAAAGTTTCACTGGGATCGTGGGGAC; value = 0.205 ratio
Sequence = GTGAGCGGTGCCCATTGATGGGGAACAACAGATTAGCTGATCTCTAATGGCCCTAGGAGAAGATCTTGTATTGCTTCAAAATCTTTTCTGATTCTCATCACTCAACCTTCTTGGCTATGTAAACAAAGGAAGCTTTCCTTTTGTTTTCCAGACGTTTGGAAAACAAAATTTTCCAGAGCTGTGCATCTGCCAGGAAATGTTTCTTTTAACCTGATATCATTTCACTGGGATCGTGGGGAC; value = 0.506 ratio
Sequence = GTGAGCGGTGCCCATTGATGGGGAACCCCTCATCCTGGGTGTCGGGGTGGGAGGTGTTCTCATCATGAATGGGAGGCGTACCCAGTGACTCACCAGCCTTTTTTTAACCAAACCAGAGTGTAAACAAATGGCTGTGTGTCACACCATAATCGACATAGCAAGATATGATACATGCCAGGAGAGAAAAAGAAAGTGCTGATGGAAAAATAATCTCATTAGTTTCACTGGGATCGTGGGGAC; value = 0.309 ratio
Sequence = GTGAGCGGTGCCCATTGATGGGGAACAACAGGAAATTCCTGGCTATTTTACAGATATAAGTACAGAATTTAAATATTCAAGCTTGTGATGAAAAGCGGCAAGGTGGTCGCAGTGTACAATGTAAACAAGTAGCTTTGGAAATGAACAAAGTCCTTGAGTGTTTTTCTTTATTAAGAAAGAACTCTCTTTCATTCCTTCCTGAAACATGATCACAGGTCATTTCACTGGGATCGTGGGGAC; value = 0.406 ratio
Sequence = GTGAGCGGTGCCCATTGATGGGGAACTAGCTTTGAAAACTGTGAAAGGGGATAACCCATAATTTCTTTTTTGATAAAATGACATGCCCCAGGGGTGAGCTAGGTTTGCTTTGACAAGAAAGTAATCTAGGAGCAAGTGAAAGGAAATGAAAAATATATTACCAAACTCTCATCTTTCAGCTGCTGATGCTGCCTATTGTCAGCTGCAGCAGAGTGTAGATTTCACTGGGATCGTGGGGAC; value = -0.0424 ratio
